{"data": "Measured values collected from several papers", "note": "Parts stem from different laboratories: compare values within a part only. Substitutions count along the parent as printed.", "UniProt Q8TD19, sequence (whole entry, looked up)": "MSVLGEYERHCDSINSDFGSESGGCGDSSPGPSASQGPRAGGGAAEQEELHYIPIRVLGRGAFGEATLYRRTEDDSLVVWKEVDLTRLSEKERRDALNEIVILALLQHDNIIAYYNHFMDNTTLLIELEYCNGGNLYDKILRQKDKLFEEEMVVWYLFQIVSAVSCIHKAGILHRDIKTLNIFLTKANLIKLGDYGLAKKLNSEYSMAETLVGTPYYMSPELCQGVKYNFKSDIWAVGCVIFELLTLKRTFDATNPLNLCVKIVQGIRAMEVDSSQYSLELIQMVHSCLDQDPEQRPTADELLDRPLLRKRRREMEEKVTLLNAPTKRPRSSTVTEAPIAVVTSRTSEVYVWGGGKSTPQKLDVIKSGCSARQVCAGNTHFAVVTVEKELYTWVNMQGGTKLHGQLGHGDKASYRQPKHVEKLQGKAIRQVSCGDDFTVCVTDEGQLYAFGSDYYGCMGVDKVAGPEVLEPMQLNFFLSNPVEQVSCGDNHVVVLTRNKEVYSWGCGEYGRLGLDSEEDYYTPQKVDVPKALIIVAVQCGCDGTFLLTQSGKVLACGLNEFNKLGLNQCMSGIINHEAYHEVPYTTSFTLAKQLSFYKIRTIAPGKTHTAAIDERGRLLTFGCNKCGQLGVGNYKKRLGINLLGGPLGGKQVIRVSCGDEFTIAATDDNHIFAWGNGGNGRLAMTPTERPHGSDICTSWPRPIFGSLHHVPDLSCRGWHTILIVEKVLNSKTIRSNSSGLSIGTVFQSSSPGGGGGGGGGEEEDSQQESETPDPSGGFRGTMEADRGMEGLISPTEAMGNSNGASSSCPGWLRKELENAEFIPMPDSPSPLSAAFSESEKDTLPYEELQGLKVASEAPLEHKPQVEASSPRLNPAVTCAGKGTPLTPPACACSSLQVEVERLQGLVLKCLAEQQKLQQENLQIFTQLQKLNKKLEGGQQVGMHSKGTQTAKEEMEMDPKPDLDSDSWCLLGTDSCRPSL", "UniProt P19784, sequence (whole entry, looked up)": "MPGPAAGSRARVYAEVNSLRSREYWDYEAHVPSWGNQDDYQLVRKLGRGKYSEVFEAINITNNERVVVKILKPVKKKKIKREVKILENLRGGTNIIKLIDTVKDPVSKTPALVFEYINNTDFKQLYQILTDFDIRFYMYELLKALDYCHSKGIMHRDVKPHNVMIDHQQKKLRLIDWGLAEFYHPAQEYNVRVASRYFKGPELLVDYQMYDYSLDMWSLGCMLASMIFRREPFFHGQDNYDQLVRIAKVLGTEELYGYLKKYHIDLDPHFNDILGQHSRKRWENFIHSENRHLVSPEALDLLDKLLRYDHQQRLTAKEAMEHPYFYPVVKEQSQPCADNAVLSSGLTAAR", "UniProt Q16288, sequence (whole entry, looked up)": "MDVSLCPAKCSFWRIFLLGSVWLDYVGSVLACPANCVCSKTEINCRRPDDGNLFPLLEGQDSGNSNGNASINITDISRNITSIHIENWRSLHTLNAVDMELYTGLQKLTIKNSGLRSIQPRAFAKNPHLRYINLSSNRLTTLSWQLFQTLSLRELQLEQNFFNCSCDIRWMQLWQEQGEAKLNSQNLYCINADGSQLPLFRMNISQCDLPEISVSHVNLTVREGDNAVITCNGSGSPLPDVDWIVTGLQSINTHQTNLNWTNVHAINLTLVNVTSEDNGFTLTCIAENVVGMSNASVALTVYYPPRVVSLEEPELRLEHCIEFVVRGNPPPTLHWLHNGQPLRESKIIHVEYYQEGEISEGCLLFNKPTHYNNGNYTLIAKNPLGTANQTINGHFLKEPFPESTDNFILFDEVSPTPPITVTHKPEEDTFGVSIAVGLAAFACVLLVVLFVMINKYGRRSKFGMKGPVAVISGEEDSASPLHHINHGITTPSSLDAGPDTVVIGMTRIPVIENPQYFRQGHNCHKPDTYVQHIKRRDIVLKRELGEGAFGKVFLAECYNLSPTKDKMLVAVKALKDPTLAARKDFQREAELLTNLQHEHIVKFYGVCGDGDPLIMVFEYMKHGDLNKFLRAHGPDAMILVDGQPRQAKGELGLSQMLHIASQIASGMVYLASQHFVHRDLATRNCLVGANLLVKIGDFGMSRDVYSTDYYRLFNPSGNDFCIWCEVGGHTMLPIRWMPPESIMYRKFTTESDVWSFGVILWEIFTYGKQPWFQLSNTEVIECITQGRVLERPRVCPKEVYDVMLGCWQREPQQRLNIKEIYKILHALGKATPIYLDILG", "UniProt Q9H422, sequence (whole entry, looked up)": "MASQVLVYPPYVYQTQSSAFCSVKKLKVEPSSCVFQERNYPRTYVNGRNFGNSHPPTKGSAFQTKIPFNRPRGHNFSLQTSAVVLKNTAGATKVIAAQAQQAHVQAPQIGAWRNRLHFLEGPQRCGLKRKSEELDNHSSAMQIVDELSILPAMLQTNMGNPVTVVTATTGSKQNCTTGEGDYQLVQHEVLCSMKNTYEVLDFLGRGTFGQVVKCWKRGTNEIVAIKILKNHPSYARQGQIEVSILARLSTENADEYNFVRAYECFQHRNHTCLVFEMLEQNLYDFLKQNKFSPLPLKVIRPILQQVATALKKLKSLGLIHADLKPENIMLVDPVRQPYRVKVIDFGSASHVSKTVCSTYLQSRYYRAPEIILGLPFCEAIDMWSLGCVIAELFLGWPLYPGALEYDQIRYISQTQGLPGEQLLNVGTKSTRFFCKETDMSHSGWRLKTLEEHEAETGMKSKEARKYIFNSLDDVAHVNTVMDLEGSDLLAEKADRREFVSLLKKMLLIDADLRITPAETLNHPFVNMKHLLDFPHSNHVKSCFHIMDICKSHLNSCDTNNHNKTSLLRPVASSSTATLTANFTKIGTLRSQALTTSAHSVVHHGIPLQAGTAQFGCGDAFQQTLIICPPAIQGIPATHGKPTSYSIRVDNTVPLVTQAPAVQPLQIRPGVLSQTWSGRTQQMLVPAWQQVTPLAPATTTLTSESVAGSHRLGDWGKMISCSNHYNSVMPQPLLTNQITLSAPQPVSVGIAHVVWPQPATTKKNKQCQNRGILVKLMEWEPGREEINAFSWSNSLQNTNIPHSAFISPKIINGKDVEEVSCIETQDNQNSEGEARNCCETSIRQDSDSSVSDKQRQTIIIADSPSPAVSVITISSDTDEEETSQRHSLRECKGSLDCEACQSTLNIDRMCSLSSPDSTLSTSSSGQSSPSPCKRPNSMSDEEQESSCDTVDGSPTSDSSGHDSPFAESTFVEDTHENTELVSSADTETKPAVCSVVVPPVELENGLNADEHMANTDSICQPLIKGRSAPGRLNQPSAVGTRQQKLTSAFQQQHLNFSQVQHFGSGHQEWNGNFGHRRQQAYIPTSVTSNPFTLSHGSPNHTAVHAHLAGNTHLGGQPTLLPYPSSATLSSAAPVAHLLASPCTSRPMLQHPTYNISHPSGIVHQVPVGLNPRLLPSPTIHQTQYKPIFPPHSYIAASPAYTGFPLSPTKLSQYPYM", "UniProt Q14289, sequence (whole entry, looked up)": "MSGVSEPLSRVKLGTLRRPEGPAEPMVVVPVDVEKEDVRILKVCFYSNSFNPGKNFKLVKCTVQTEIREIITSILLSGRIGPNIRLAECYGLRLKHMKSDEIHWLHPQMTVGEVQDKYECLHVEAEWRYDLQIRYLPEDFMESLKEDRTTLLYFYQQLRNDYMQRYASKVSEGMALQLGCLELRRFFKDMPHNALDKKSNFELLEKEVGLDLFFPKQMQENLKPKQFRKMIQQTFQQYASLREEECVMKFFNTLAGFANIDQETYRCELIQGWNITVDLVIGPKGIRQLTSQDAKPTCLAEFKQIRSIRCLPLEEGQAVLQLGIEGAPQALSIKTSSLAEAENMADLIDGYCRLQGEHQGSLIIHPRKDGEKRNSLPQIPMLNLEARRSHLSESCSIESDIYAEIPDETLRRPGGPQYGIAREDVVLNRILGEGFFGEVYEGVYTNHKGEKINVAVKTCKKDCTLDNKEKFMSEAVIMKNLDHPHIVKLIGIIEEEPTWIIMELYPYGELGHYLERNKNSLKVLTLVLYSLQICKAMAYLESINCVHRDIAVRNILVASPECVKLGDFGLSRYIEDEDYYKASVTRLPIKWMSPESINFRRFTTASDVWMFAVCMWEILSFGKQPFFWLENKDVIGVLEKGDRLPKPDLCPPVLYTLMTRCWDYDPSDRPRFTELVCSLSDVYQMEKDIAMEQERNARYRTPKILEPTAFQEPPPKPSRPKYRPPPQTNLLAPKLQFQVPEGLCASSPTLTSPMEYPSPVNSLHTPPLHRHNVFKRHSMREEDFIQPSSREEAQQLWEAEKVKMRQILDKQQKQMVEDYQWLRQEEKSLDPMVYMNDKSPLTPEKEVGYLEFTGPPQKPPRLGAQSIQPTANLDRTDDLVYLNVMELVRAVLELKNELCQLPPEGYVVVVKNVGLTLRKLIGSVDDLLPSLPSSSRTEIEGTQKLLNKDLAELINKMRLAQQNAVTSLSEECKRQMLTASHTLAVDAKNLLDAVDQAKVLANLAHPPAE", "UniProt Q96NX5, sequence (whole entry, looked up)": "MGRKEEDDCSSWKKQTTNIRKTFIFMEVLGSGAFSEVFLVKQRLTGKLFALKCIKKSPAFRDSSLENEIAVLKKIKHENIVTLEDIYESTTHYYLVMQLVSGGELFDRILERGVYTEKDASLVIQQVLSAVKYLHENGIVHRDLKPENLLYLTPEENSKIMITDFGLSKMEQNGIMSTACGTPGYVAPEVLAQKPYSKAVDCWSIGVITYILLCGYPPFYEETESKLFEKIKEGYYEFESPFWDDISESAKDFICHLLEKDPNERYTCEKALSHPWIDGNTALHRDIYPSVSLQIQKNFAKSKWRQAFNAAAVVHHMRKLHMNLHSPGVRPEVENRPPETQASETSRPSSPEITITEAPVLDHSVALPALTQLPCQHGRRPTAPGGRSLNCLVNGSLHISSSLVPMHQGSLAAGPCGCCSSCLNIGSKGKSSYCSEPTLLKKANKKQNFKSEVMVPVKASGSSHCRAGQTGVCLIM"}
{"data": "Block 1", "target": "CCND3, cyclin fold, Cln2 fusion (human)", "technique": "yeast growth competition, sequencing", "matrix": "yeast", "setting": "weak parent motif", "reference": "not given", "reading": "higher = stronger binding", "starting sequence": "WEE1 docking peptide (human); HKTFRKLRLFDTP"}
{"Substitution": "HKTFRKKRLFDTP [L7K]", "normalised enrichment score": 0.142}
{"Substitution": "HKTFRKLFLFDTP [R8F]", "normalised enrichment score": -0.0357}
{"Substitution": "HKTFSKLRLFDTP [R5S]", "normalised enrichment score": 0.0959}
{"Substitution": "HKTDRKLRLFDTP [F4D]", "normalised enrichment score": 0.1}
{"Substitution": "HKTFRKLRLFATP [D11A]", "normalised enrichment score": 0.12}
{"Substitution": "HKTFQKLRLFDTP [R5Q]", "normalised enrichment score": 0.0681}
{"Substitution": "HKTFRKLNLFDTP [R8N]", "normalised enrichment score": 0.0812}
{"Substitution": "HKTFRKLRLFDTL [P13L]", "normalised enrichment score": 0.0798}
{"data": "Block 2", "target": "Interferon regulatory factor 5, full length, phosphomimetic (IRF5, Homo sapiens, UniProt Q13568-2, residues 1-514, S451D/S453D/S456D/S462D)", "technique": "protein-binding microarray", "form": "double-stranded DNA, one strand shown", "matrix": "in vitro", "concentration": "940 nM top", "setting": "60-bp whole probe", "with": "salmon DNA 0.4 mg/ml", "reference": "random background probes", "reading": "higher = stronger binding", "all sequences stand within": "GCCTAGCAC … GTCTTGATTCGCTTGACGCTGCTG"}
{"Oligonucleotide": "TCAGCTTTTTTTCCGAGACTGTGCTAG", "fitted relative affinity [z-score]": 1.24}
{"Oligonucleotide": "GTTCTTTTCAGTCCCCTCTTGTGCTAG", "fitted relative affinity [z-score]": 1.17}
{"Oligonucleotide": "GACGGTATCGGGTATCGGGCCGTGCTA", "fitted relative affinity [z-score]": 5.34}
{"Oligonucleotide": "TCATACTTCTCTTTTGGACTGTGCTAG", "fitted relative affinity [z-score]": 0.873}
{"Oligonucleotide": "TCACGTTTACATTTTCCACTGTGCTAG", "fitted relative affinity [z-score]": 0.933}
{"Oligonucleotide": "ACAAAGATTTTTATCAAATGGTGCTAG", "fitted relative affinity [z-score]": 0.325}
{"Oligonucleotide": "GACGGTATCCTTATACTGACGTGCTAG", "fitted relative affinity [z-score]": 0.0623}
{"Oligonucleotide": "TTATGTATCGGTCTCGGTTAGTGCTAG", "fitted relative affinity [z-score]": 6.13}
{"data": "Block 3", "SMILES": "Cn1cnc2cc3c(Nc4cccc(Br)c4)ncnc3cc21", "read-out": "enzyme activity", "mode": "inhibitor", "concentration": "0.5 µM", "reference": "control"}
{"target": "Calcium/calmodulin-dependent protein kinase type 1D (CAMK1D, Homo sapiens, UniProt Q8IU85)", "remaining activity [%]": 104}
{"target": "Mitogen-activated protein kinase 10 (MAPK10, Homo sapiens, UniProt P53779)", "remaining activity [%]": 104}
{"target": "NT-3 growth factor receptor (NTRK3, Homo sapiens, UniProt Q16288)", "remaining activity [%]": 81.4}
{"target": "Myotonin-protein kinase (DMPK, Homo sapiens, UniProt Q09013)", "remaining activity [%]": 98.5}
{"target": "Casein kinase II subunit alpha' (CSNK2A2, Homo sapiens, UniProt P19784)", "remaining activity [%]": 91.7}
{"target": "Proto-oncogene tyrosine-protein kinase receptor Ret (RET, Homo sapiens, UniProt P07949)", "remaining activity [%]": 54.4}
{"target": "Homeodomain-interacting protein kinase 3 (HIPK3, Homo sapiens, UniProt Q9H422)", "remaining activity [%]": 107}
{"target": "Proto-oncogene tyrosine-protein kinase ROS (ROS1, Homo sapiens, UniProt P08922)", "remaining activity [%]": 99.9}
{"target": "Aurora kinase A (AURKA, Homo sapiens, UniProt O14965)", "remaining activity [%]": 87.8}
{"target": "Serine/threonine-protein kinase BRSK1 (BRSK1, Homo sapiens, UniProt Q8TDC3)", "remaining activity [%]": 81.6}
{"target": "G protein-coupled receptor kinase 5 (GRK5, Homo sapiens, UniProt P34947)", "remaining activity [%]": 109}
{"target": "Cyclin-dependent kinase 2, with cyclin A (CDK2, Homo sapiens, UniProt P24941)", "remaining activity [%]": 90.1}
{"target": "Serine/threonine-protein kinase N2 (PKN2, Homo sapiens, UniProt Q16513)", "remaining activity [%]": 85.7}
{"target": "STE20-like serine/threonine-protein kinase (SLK, Homo sapiens, UniProt Q9H2G2)", "remaining activity [%]": 67.8}
{"target": "Serine/threonine-protein kinase Nek9 (NEK9, Homo sapiens, UniProt Q8TD19)", "remaining activity [%]": 90}
{"target": "Dual specificity tyrosine-phosphorylation-regulated kinase 4 (DYRK4, Homo sapiens, UniProt Q9NR20)", "remaining activity [%]": 97.5}
{"target": "Calcium/calmodulin-dependent protein kinase type 1G (CAMK1G, Homo sapiens, UniProt Q96NX5)", "remaining activity [%]": 94.2}
{"target": "Serine/threonine-protein kinase D1 (PRKD1, Homo sapiens, UniProt Q15139)", "remaining activity [%]": 99.4}
{"target": "Protein-tyrosine kinase 2-beta (PTK2B, Homo sapiens, UniProt Q14289)", "remaining activity [%]": 92.7}
{"target": "Mitogen-activated protein kinase kinase kinase 2 (MAP3K2, Homo sapiens, UniProt Q9Y2U5)", "remaining activity [%]": 97.6}
{"target": "Mitogen-activated protein kinase kinase kinase 8 (MAP3K8, Homo sapiens, UniProt P41279)", "remaining activity [%]": 90.1}
{"target": "Rho-associated protein kinase 2 (ROCK2, Homo sapiens, UniProt O75116)", "remaining activity [%]": 88.5}
{"data": "Block 4", "SMILES": "CC(=O)N1CCC(c2ccc(C(=O)NC(=N)N)cc2C(F)(F)F)CC1", "technique": "competition with immobilised ligand", "concentration": "1 µM"}
{"target": "Myosin light chain kinase, smooth muscle (MYLK, Homo sapiens, UniProt Q15746)", "assay": "cell-free assay", "remaining binding": "90%"}
{"target": "Serine/threonine-protein kinase LATS2 (LATS2, Homo sapiens, UniProt Q9NRM7)", "assay": "cell-free assay", "remaining binding": "100%"}
{"target": "Tyrosine-protein kinase Srms (SRMS, Homo sapiens, UniProt Q9H3Y6)", "assay": "cell-free assay", "remaining binding": "80%"}
{"target": "Mitogen-activated protein kinase kinase kinase kinase 5 (MAP4K5, Homo sapiens, UniProt Q9Y4K4)", "assay": "cell-free assay", "remaining binding": "100%"}
{"target": "Protein kinase C delta type (PRKCD, Homo sapiens, UniProt Q05655)", "assay": "cell-free assay", "remaining binding": "100%"}
{"target": "Fibroblast growth factor receptor 4 (FGFR4, Homo sapiens, UniProt P22455)", "assay": "cell-free assay", "remaining binding": "100%"}
{"target": "Serine/threonine-protein kinase NLK (NLK, Homo sapiens, UniProt Q9UBE8)", "assay": "cell-free assay", "remaining binding": "100%"}
{"target": "Homeodomain-interacting protein kinase 2 (HIPK2, Homo sapiens, UniProt Q9H2X6)", "assay": "cell-free assay", "remaining binding": "100%"}
{"target": "Serine/threonine-protein kinase PLK2 (PLK2, Homo sapiens, UniProt Q9NYY3)", "assay": "cell-free assay", "remaining binding": "93%"}
{"target": "Homeodomain-interacting protein kinase 1 (HIPK1, Homo sapiens, UniProt Q86Z02)", "assay": "cell-free assay", "remaining binding": "81%"}
{"target": "Epidermal growth factor receptor (EGFR, Homo sapiens, UniProt P00533, G719S)", "assay": "cell-free assay", "remaining binding": "96%"}
{"target": "Phosphatidylinositol 4,5-bisphosphate 3-kinase catalytic subunit alpha isoform (PIK3CA, Homo sapiens, UniProt P42336, H1047Y)", "assay": "cell-free assay", "remaining binding": "100%"}
{"target": "Serine/threonine-protein kinase ICK (CILK1, Homo sapiens, UniProt Q9UPZ9)", "assay": "binding", "remaining binding": "94%"}
